Measured values gathered from unrelated publications.
Numbered parts are unrelated; each lists some results of a single study.

Study 1 — method: protein binding microarray; form: double-stranded DNA, one strand shown; medium: in vitro; tested at: not given; baseline: not given; reading: higher = stronger binding
Target: Histone acetyltransferase KAT6A, winged helix 1, GST fusion (KAT6A, Homo sapiens, UniProt Q92794, residues 1-85)
Setting: 8-mer, flanks averaged, mean of 2 arrays, mostly near background
Construct (chain): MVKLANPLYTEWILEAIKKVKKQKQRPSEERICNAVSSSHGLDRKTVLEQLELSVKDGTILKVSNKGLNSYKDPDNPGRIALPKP
Strand | E-score
CCTTTTAG | -0.0807
CGGTTTCA | 0.12
ACTATCAC | -0.22
CTTCCTGA | -0.169
TCACGAGA | -0.279
GTTCATTA | -0.0815

Study 2 — method: protein-binding microarray; form: double-stranded DNA, one strand shown; medium: in vitro; tested at: 250 nM; setting: 60-bp whole probe; added: salmon DNA 0.4 mg/ml; baseline: random background probes; reading: higher = stronger binding
Target: Interferon regulatory factor 7, full length, phosphomimetic (IRF7, Homo sapiens, UniProt Q92985, residues 1-503, S101K/S471D/S472D/S475D/S476D/S477D/S483D/S484D/S487D)
Shared flanks, not repeated: GCCTAGCACT … GTGCTAGGTCTTGATTCGCTTGACGCTGCTG
Construct (chain): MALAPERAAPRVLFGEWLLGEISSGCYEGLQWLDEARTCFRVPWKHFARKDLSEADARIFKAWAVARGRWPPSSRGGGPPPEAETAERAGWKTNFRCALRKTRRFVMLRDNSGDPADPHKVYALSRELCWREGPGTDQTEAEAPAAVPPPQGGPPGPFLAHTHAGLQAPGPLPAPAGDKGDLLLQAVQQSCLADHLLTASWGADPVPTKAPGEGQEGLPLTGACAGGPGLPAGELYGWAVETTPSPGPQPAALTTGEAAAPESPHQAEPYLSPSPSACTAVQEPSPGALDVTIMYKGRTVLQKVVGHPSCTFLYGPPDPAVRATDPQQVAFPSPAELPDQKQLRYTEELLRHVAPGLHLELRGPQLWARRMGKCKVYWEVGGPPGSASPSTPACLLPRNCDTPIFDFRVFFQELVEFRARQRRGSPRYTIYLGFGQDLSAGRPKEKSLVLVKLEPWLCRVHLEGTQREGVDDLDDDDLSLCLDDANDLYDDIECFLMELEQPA
Strand | log fluorescence [z-score]
TAGGTTTCCTTTCCCTGTA | 5.19
GTGGCTTAGCTGTCACCTC | -0.663
CACATACTGATTTCCAACT | 0.519
TTGATTCCAGTTTCGATTA | 9.08
TAGATCTCAGTATCTATTA | 0.312
TAGGTATCCTAATGCTTTA | 0.294

Study 3 — method: RNA Bind-n-Seq; form: RNA; medium: in vitro; tested at: not given; baseline: input RNA pool; reading: higher = stronger binding
Target: RING finger protein unkempt homolog, zinc fingers 1-6, GST-SBP tag (UNK, Homo sapiens, UniProt Q9C0B0, residues 30-357)
Sequence of UniProt Q9C0B0 (30-357, looked up): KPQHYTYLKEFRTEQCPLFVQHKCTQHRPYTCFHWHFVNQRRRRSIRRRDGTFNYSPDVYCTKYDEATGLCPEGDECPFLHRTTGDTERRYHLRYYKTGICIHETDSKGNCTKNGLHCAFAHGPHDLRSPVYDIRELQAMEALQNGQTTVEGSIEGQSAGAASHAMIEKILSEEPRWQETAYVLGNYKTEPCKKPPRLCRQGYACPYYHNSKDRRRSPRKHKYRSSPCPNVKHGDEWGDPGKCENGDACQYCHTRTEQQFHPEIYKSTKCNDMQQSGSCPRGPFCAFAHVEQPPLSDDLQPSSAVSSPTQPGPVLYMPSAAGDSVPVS
Setting: RNA with constant flanks, human-mouse chimeric sites, ends assumed
Shared flanks, not repeated: GGGAGUUCUACAGUCCGACGAUC … CAACAGAGGAUUGAGCAUCA
Strand | bound/input enrichment [ratio]
AAUAGAGGAUCCACCUCCCAAAGUGCUGGGAGUAAAGGUGUGGCCACCACACCUAACUUGAUGGAUAUAUAUUUUUUUUAAUAUGAAUCUUCCUGUUCUUCAUCCAGAGAAAGAUUUGUU | 1.07
AGAAUCUGUGACUGGCUUUACUUAAUUGGUCAUUGAUAUCUCAACAAACAUGGAGAUAAGAUUAGAAAUCUUGACAUCAACAGGUAUUAAGCAGAAAAAACCAUGGCCACGUGUCUCCUG | 0.205
GCUGAAAAUGAAGAAGAGGCAGCUGAUGUCUGGUACAACUUGGGACAUGUAGCUGUGGGAAUCGGAGAUACAAACUUGGCCCACCAAUGCUUCAGGCUGGCCCUGGUCCACAACAACCAC | 0.124
GGCUGCUACUAUUCUCCCUGGAGUGGCUGGAGUUCCCGCCGGAGCGCGCGCAGGUUAAUUUUAGAAAAUGCCAAGUAGGAAGUUUGUUGAGGGUGAAGUGGUCAGAGGCCGAUGGCCUGG | 3.51
GAGUCGAGCAAACUUGAAACAAUUCGUUAUCUUGCAGCCUCAGUGUUCACUUGCUUGGCGAUAGCAUUGGGGUUUUAUAGGUUCUGGGGAAGUAGUAGACGAUGAUGUCCUGCUGUGUGC | 0.718
UAAAUCCUGUGCCAGCACUUCGCUCAUUAUAUUUUAAAUUCUGGACCAAUAGUGUUUGUUUCCUGAUUAUUGUAUCCAAUACUUUGCCUAGUAUGUAACUCACUCUUACUGAUAAUAAAA | 2.62
CGGAGCCCUCCUCUCCCACAGGCCCAAGAUAUAACCCACCAGUGCCUUUUGUCUUCCUGUCAGCUCUGUCAAUCACGCCUGUCCUCUGUCCCUCUCACCAAGUGCCCCCACCCCUAAGGG | 0.343

Other studies, line by line
Molecule | target | assay | test system | setting | scale | quantity | value
PhoQ, residues 284 288 289 292 302 303 SLCLSL | PhoP, residues 12 14 15 18 19 GHCSL (Escherichia coli, UniProt P23836) | Sort-seq, item: YFP reporter | E. coli | PhoQ-PhoP variant library, added: 10 µM Mg2+ | baseline: high Mg2+ state, higher = stronger signaling | fold induction | 2.34
